Experimental data from different studies.
Compare with care: the assays were run in different laboratories. “And” joins repeats or separate records; there may be more than shown. ± marks the error that the study gave.
UniProt P33261, sequence (whole entry, looked up): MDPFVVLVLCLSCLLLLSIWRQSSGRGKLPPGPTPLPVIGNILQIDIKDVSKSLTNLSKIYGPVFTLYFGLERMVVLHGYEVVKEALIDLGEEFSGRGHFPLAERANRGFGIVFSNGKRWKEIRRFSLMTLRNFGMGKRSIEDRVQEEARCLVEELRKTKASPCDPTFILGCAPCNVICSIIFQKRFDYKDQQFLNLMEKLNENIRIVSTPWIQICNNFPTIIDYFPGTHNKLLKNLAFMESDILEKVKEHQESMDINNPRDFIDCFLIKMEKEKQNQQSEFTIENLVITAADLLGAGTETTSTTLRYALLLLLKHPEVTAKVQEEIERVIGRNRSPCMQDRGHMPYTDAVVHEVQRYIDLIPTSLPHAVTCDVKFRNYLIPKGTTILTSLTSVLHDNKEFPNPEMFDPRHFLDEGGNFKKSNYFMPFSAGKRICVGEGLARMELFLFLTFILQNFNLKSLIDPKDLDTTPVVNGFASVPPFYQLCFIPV

Under “log2 fold change”, `COC1CN([C@H]2CC[C@H]([C@@]3(C)Oc4c(Cl)cc(C(=O)NCc5c(SC)cc(C)[nH]c5=O)c(C)c4O3)CC2)C1` is recorded as 1.43 (RNA-seq, refers to: PITHD1; human, whole blood; dose not given, 24 h; relative to: pretreatment baseline).
For `N=C(N)NCCC[C@@H]1NC(=O)[C@H](CCCNC(=N)N)NC(=O)[C@@H](CCCNC(=N)N)NC(=O)[C@@H](CCCNC(=N)N)NC(=O)[C@@H](C(c2ccccc2)c2ccccc2)NC(=O)[C@H](Cc2c[nH]c3ccccc23)NC(=O)[C@@H](C(c2ccccc2)c2ccccc2)NC1=O`, the viability was 80 to 82% (human liver cells; MTS; 200 µg/mL, 24 h).
`O=C1C2CC3CC1CC(C(=O)N1CCN(c4ccc([N+](=O)[O-])c5ncccc45)CC1)(C3)C2` — result for “revertant fold increase”: 0.9 (Escherichia coli; Ames test; WP2 uvrA pKM101; 0.02 µg/well, with S9; relative to: vehicle).
`C=C(NC(=O)c1csc(-c2nc3c(cc2O)-c2nc(cs2)C(=O)NC(C(C)O)C(=O)NC(=C(C)OC)c2nc(cs2)C(=O)NC2c4nc(cs4)C(=O)NC(COC(=O)c4c5c6c(cccc6n4O)COC(=O)C(OC4CC(C)(O)C(N(C)C)C(C)O4)C2OC5)c2nc-3cs2)n1)C(N)=O` (centres unmarked) gave a Tmax of 4.8 min (male Sprague-Dawley rat, plasma; intravenous, 18 mg/kg, single dose, infusion).
For `CCN(CC)CC#CCNc1ccnc2cc(Cl)ccc12`, “revertants per well” read 74 (Salmonella typhimurium; mini-Ames test; TA102; 250.0 µg/well, without S9).
`N#C[C@@H]1CCCN1C(=O)CNC(=O)c1ccnc2ccc(OCCCN3CCN(C(=O)CCc4ccc5c(c4)CN4CCN(Cc6cc(CCC(=O)O)ccc6O)CC(=O)[O][Al-]([18F])([O]C(=O)C4)[O]5)CC3)cc12` (some centres unmarked) has a tracer uptake of 13.4 %ID/g (U-87 MG tumour model; host not given, intestine; 1 h, tumour-bearing).
With `N#C[C@@H]1CC(F)(F)CN1C(=O)CNC(=O)c1ccnc2c(NC(=O)[C@H](CCCCNC(=O)CCOCCOCCOCCOCCOCCOCCNC(=O)CN3CCN(CC(=O)[O-])CCN(CC(=O)[O-])CCN(CC(=O)[O-])CC3)NC(=O)CCCc3ccc(I)cc3)cccc12.[177Lu+3]` the tracer uptake was 0.95 %ID/g (U-87 MG tumour model; host not given, bone; 48 h, tumour-bearing).
`Cc1ncsc1-c1ccc(C(C)NC(=O)C2CC(O)CN2C(=O)C(NC(=O)CCCCCCCCCCN2CCCC(Nc3ncc(Cl)c(Nc4ccccc4S(=O)(=O)C(C)C)n3)C2)C(C)(C)C)cc1` (centres unmarked): “log2 fold change” -4.52 (22Rv1; RNA-seq, refers to: MATN1-AS1; concentration not given; relative to: DMSO).
With `CCCCCC[C@@H](CSS(=O)(=O)O)NCCC` the body weight was 33.7 g and 32 g and 33 g (Schistosoma mansoni; perfusion day 57; infected Swiss Webster mice; 100 mg/kg).
The tracer uptake of `COc1cccc(OC)c1-c1cc(C(=O)NC2(C(=O)O)C3CC4CC(C3)CC2C4)nn1-c1ccc(C(=O)N(C)CCOCCOCCN(C)C(=O)[C@H](CCCCNC(=O)[C@H](CC(C)C)NC(=O)C2OC2C(=O)O)NC(=O)CN2CCN(CC(=O)[O-])CCN(CC(=O)[O-])CCN(CC(=O)[O-])CC2)cc1C(C)C.[177Lu+3]` (mixture of isomers) is reported as 0.13 %ID/g (HT-29 tumour model; host not given, blood; 72 h, tumour-bearing).
For `O=C1NC2(CC2)COc2ncc(F)cc2[C@H]2COCCN2c2ccn3ncc1c3n2`, “cells with structural aberrations” read 1% (CHL cells; chromosomal aberration test; 10 µg/mL, 24 h, without S9 mix).
`CC(C)OCCOCc1ccc(OCC(O)CN(N=O)C(C)C)cc1` (centres unmarked): “revertant fold increase” 1.7 fold (Salmonella typhimurium; Ames test; TA100; 158 µg/plate, 30 % hamster S9; relative to: solvent control).
The remaining activity of `CNC(=O)C1CCCN(C(=O)C2CC3CCC2N3C(=O)[C@@H]2C[C@@H](O)CN2C(=O)NCc2cccc(Cl)c2F)C1` (mixture of isomers) is reported as 97% (CYP2C19 (Homo sapiens, UniProt P33261); enzyme activity, inhibitor, time-dependent inhibition; 16.7 µM, preincubated without NADPH; relative to: negative control).
With `Cc1cc(=O)c2c(O)c3c(O[C@@H]4O[C@H](CO)[C@@H](O)[C@H](O)[C@H]4O)cc(O)cc3cc2o1` the cell viability was 70.2 ± 15.1% (HK-2 co-cultured with HepaRG; MTT; 133.33 µM, 24 h; relative to: untreated control).

A few entries again:
`C=C(NC(=O)c1csc(-c2nc3c(cc2O)-c2nc(cs2)C(=O)NC(C(C)O)C(=O)NC(=C(C)OC)c2nc(cs2)C(=O)NC2c4nc(cs4)C(=O)NC(COC(=O)c4c5c6c(cccc6n4O)COC(=O)C(OC4CC(C)(O)C(N(C)C)C(C)O4)C2OC5)c2nc-3cs2)n1)C(N)=O` (centres unmarked) gave a Tmax of 4.8 min (male Sprague-Dawley rat, plasma; intravenous, 18 mg/kg, single dose, infusion).
For `N=C(N)NCCC[C@@H]1NC(=O)[C@H](CCCNC(=N)N)NC(=O)[C@@H](CCCNC(=N)N)NC(=O)[C@@H](CCCNC(=N)N)NC(=O)[C@@H](C(c2ccccc2)c2ccccc2)NC(=O)[C@H](Cc2c[nH]c3ccccc23)NC(=O)[C@@H](C(c2ccccc2)c2ccccc2)NC1=O`, the viability was 80 to 82% (human liver cells; MTS; 200 µg/mL, 24 h).
